{"data": "Assay results gathered from unrelated publications", "note": "Numbered parts are unrelated; each lists some results of a single study. Changes are numbered by the printed parent chain.", "sequence of UniProt Q6P3R8 (whole entry, looked up)": "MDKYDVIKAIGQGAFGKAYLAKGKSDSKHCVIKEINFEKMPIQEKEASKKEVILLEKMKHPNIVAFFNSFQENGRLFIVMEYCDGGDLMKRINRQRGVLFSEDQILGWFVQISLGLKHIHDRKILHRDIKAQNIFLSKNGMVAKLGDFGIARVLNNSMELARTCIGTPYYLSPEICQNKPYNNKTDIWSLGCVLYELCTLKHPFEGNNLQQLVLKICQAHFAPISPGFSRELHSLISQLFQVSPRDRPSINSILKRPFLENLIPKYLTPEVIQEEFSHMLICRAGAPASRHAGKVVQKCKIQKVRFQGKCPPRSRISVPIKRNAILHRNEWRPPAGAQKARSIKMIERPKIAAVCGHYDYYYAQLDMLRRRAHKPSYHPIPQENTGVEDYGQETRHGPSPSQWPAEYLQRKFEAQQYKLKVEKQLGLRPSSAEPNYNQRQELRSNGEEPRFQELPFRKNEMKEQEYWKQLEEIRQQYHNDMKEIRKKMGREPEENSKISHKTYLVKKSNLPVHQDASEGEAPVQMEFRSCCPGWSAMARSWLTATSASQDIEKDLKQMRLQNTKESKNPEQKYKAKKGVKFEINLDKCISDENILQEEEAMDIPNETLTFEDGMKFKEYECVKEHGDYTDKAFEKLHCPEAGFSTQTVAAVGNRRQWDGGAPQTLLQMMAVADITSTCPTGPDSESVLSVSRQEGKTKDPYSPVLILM", "sequence of UniProt O75716 (whole entry, looked up)": "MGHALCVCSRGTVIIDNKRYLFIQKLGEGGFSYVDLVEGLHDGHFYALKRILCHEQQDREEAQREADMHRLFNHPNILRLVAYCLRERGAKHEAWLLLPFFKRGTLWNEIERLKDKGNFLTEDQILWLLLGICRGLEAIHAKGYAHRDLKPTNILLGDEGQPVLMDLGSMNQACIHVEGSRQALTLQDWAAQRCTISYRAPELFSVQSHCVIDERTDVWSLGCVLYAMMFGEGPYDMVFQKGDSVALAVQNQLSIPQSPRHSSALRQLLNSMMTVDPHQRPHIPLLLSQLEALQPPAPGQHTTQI", "sequence of UniProt P36896 (whole entry, looked up)": "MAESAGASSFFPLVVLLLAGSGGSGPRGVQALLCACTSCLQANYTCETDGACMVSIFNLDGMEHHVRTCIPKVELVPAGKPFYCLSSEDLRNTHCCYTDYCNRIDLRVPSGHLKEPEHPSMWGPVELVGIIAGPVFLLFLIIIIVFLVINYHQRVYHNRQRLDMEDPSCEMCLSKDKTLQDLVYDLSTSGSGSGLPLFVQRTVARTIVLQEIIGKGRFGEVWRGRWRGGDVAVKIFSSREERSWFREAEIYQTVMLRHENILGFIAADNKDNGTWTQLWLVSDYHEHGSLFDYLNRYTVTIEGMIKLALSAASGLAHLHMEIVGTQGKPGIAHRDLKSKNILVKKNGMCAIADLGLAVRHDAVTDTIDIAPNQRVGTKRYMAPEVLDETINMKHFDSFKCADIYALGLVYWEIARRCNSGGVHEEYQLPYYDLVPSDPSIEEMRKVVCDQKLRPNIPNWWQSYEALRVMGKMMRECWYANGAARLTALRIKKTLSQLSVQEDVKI", "sequence of UniProt Q13873 (whole entry, looked up)": "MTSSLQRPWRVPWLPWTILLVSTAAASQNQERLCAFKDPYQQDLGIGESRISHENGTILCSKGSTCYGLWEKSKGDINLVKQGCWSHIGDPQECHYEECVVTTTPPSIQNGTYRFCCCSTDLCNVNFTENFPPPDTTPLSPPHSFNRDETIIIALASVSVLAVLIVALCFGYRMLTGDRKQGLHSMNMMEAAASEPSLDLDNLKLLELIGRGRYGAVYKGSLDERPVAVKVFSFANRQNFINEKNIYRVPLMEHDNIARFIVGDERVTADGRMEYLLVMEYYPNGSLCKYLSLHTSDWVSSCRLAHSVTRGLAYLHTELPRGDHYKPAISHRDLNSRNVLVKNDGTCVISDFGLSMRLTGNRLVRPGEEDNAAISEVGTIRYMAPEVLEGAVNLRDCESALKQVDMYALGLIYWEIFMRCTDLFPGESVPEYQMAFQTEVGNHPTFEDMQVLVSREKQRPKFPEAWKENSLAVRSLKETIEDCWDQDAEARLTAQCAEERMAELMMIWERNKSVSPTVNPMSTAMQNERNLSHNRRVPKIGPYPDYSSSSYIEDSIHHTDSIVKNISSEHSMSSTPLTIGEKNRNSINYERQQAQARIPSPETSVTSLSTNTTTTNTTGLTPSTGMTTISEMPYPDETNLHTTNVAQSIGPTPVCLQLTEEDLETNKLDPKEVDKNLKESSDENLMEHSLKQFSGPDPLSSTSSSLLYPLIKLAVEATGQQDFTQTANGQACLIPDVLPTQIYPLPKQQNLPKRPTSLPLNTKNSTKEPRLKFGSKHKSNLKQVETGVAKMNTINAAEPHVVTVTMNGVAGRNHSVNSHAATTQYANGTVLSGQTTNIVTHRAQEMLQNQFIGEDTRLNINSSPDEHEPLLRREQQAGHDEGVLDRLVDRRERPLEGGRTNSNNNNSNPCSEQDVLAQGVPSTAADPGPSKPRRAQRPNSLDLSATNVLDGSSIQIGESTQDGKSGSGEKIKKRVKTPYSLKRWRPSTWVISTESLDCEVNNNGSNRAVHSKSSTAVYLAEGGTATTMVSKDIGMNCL", "sequence of UniProt Q86YV6 (whole entry, looked up)": "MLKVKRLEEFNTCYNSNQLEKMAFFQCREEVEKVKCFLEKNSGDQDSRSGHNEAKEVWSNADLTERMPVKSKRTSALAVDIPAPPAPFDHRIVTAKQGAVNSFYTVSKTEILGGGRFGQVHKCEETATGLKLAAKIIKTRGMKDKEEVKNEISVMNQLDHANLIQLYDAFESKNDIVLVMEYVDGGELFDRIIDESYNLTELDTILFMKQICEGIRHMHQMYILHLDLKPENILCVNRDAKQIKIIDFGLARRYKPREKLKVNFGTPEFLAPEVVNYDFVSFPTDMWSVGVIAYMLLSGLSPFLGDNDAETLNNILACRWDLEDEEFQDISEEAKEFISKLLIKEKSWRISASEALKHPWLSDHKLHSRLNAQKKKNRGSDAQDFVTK", "sequence of UniProt P08631 (whole entry, looked up)": "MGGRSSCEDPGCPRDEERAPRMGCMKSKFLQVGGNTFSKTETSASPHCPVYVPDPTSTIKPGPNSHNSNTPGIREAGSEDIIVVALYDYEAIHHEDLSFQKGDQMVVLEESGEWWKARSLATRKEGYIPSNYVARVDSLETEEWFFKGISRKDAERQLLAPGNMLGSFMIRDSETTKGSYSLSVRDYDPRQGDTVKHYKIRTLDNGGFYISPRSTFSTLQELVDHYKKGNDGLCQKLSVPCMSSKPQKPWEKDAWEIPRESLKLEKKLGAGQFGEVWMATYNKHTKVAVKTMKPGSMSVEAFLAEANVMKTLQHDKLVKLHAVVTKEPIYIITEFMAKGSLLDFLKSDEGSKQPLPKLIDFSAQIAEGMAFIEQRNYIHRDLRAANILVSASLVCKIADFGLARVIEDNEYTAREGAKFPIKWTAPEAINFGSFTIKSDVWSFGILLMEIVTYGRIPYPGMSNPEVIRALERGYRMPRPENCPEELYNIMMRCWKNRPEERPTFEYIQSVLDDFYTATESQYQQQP"}
{"data": "Block 1", "target": "Ribosomal protein S6 kinase alpha-2 (RPS6KA2, Homo sapiens, UniProt Q15349)", "read-out": "enzyme activity", "action": "inhibitor", "tested at": "0.5 µM", "relative to": "control", "sequence of UniProt Q15349 (whole entry, looked up)": "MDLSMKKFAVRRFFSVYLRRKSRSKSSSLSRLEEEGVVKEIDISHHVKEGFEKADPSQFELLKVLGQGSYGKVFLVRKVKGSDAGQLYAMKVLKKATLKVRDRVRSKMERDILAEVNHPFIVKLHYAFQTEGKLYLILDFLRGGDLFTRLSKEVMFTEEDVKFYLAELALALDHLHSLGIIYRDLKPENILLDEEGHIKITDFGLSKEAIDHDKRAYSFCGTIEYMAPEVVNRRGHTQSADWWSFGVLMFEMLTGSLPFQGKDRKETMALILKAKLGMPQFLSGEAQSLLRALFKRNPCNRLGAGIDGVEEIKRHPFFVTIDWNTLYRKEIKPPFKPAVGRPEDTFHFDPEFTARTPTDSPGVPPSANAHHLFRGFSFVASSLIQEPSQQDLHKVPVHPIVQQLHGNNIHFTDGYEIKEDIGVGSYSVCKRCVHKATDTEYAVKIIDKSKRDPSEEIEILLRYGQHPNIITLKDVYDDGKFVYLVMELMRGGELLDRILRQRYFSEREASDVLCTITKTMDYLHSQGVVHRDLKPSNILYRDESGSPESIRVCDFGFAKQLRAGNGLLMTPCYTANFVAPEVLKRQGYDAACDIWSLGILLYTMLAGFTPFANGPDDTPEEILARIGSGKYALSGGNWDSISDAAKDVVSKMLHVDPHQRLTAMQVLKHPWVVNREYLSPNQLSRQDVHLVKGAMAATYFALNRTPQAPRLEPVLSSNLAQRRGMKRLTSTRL"}
{"Compound": "O=C1NC(=O)c2cc(Nc3ccc(F)cc3)c(Nc3ccc(F)cc3)cc21", "remaining activity [%]": 98.7}
{"Compound": "COc1cc2ncnc(Nc3ccc(F)c(Cl)c3)c2cc1OCCCN1CCOCC1", "remaining activity [%]": 82.3}
{"Compound": "CC(C)[C@H](CO)Nc1nc(Nc2cc(N)cc(Cl)c2)c2ncn(C(C)C)c2n1", "remaining activity [%]": 48.7}
{"data": "Block 2", "SMILES": "CO[C@H]1CC[C@H](CNc2ccc(S(=O)(=O)NC(=O)c3ccc(N4CCN(CC5=C(c6ccc(Cl)cc6)CC(C)(C)CC5)CC4)cc3Oc3cnc4[nH]ccc4c3)cc2[N+](=O)[O-])CC1", "tested at": "1 µM"}
{"target": "Myosin light chain kinase family member 4 (MYLK4, Homo sapiens, UniProt Q86YV6)", "test": "cell-free assay, competition with immobilised ligand", "remaining binding [%]": 98}
{"target": "Receptor-type tyrosine-protein kinase FLT3 (FLT3, Homo sapiens, UniProt P36888, D835V/ITD)", "test": "cell-free assay, competition with immobilised ligand", "remaining binding [%]": 100}
{"target": "Serine/threonine-protein kinase 16 (STK16, Homo sapiens, UniProt O75716)", "test": "cell-free assay, competition with immobilised ligand", "remaining binding [%]": 79}
{"target": "Serine/threonine-protein kinase Nek5 (NEK5, Homo sapiens, UniProt Q6P3R8)", "test": "cell-free assay, competition with immobilised ligand", "remaining binding [%]": 88}
{"target": "Bone morphogenetic protein receptor type-2 (BMPR2, Homo sapiens, UniProt Q13873)", "test": "cell-free assay, competition with immobilised ligand", "remaining binding [%]": 100}
{"target": "Activin receptor type-1B (ACVR1B, Homo sapiens, UniProt P36896)", "test": "cell-free assay, competition with immobilised ligand", "remaining binding [%]": 67}
{"target": "Epidermal growth factor receptor (EGFR, Homo sapiens, UniProt P00533, T790M)", "test": "cell-free assay, competition with immobilised ligand", "remaining binding [%]": 98}
{"target": "AP2-associated protein kinase 1 (AAK1, Homo sapiens, UniProt Q2M2I8)", "test": "binding", "remaining binding [%]": 78}
{"target": "Tyrosine-protein kinase HCK (HCK, Homo sapiens, UniProt P08631)", "test": "cell-free assay, competition with immobilised ligand", "remaining binding [%]": 71}
{"target": "Phosphatidylinositol 4,5-bisphosphate 3-kinase catalytic subunit alpha isoform (PIK3CA, Homo sapiens, UniProt P42336, Q546K)", "test": "cell-free assay, competition with immobilised ligand", "remaining binding [%]": 100}
{"data": "Block 3", "target": "NFE2L2, bZIP domain (human)", "method": "DHFR protein complementation", "medium": "yeast", "setting": "single substitutions, most at no-binding floor", "relative to": "wild-type JUN-FOS pair", "reading": "higher = stronger binding", "parent": "JUN, bZIP domain (human); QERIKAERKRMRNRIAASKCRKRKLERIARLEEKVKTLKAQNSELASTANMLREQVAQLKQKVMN; partner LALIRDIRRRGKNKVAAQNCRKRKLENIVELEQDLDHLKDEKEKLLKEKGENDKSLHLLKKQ"}
{"Variant": "E54V", "binding fitness [natural log]": -1.51}
{"Variant": "K39N", "binding fitness [natural log]": -1.46}
{"Variant": "E32Y", "binding fitness [natural log]": -1.5}
{"Variant": "A57K", "binding fitness [natural log]": -1.34}
{"Variant": "E54L", "binding fitness [natural log]": -1.4}
{"Variant": "T48V", "binding fitness [natural log]": -1.47}
{"Variant": "K36H", "binding fitness [natural log]": -1.45}
{"Variant": "R53A", "binding fitness [natural log]": -1.54}
{"data": "Block 4", "target": "Prothrombin, mature alpha-thrombin (F2, Homo sapiens, UniProt P00734)", "method": "aptamer microarray, sandwich", "form": "DNA with 2'F-ANA", "medium": "in vitro", "tested at": "200 nM", "setting": "whole 15-mer aptamer, many near background", "with": "Cy3 exosite-II aptamer, 400 nM", "reading": "higher = stronger binding", "sequence": "GGTTGGTGTGGTTGG"}
{"Modification": "2'F-ANA at 1 2 3 4 5 6 7 8 9 10 12 13 15", "mean fluorescence intensity": "51.7 a.u."}
{"Modification": "2'F-ANA at 1 2 3 4 6 7 8 9 12 13 14", "mean fluorescence intensity": "64.4 a.u."}
{"Modification": "2'F-ANA at 1 2 3 7 9 10 12 13 14 15", "mean fluorescence intensity": "70.6 a.u."}
{"Modification": "2'F-ANA at 2 6 7 11", "mean fluorescence intensity": "315 a.u."}
{"Modification": "2'F-ANA at 4 8 9 13 14", "mean fluorescence intensity": "102 a.u."}
{"Modification": "2'F-ANA at 1 4 6 7 11 12 15", "mean fluorescence intensity": "171 a.u."}
{"Modification": "2'F-ANA at 1 2 3 4 5 6 10 11 12 13 15", "mean fluorescence intensity": "47.7 a.u."}
{"Modification": "2'F-ANA at 1 3 5 7 8 9 11 13", "mean fluorescence intensity": "54.7 a.u."}
{"note": "A few entries again (block 2):"}
{"target": "Epidermal growth factor receptor (EGFR, Homo sapiens, UniProt P00533, T790M)", "test": "cell-free assay, competition with immobilised ligand", "remaining binding [%]": 98}
{"target": "AP2-associated protein kinase 1 (AAK1, Homo sapiens, UniProt Q2M2I8)", "test": "binding", "remaining binding [%]": 78}
{"target": "Tyrosine-protein kinase HCK (HCK, Homo sapiens, UniProt P08631)", "test": "cell-free assay, competition with immobilised ligand", "remaining binding [%]": 71}
{"target": "Phosphatidylinositol 4,5-bisphosphate 3-kinase catalytic subunit alpha isoform (PIK3CA, Homo sapiens, UniProt P42336, Q546K)", "test": "cell-free assay, competition with immobilised ligand", "remaining binding [%]": 100}
